Published values pooled from the literature.
Parts stem from different laboratories: compare values within a part only.

Series 1
Target: Interferon regulatory factor 3, full length, phosphomimetic (IRF3, Homo sapiens, UniProt Q14653, residues 1-427, S386D/S396D/S398D/S402D/T404D/S405D)
Technique: protein-binding microarray
Form: double-stranded DNA, one strand shown
Sample: in vitro
Tested at: 2540 nM top
Notes: 60-bp whole probe
Together with: salmon DNA 0.4 mg/ml
Reference: random background probes
Reading: higher = stronger binding
Construct (chain): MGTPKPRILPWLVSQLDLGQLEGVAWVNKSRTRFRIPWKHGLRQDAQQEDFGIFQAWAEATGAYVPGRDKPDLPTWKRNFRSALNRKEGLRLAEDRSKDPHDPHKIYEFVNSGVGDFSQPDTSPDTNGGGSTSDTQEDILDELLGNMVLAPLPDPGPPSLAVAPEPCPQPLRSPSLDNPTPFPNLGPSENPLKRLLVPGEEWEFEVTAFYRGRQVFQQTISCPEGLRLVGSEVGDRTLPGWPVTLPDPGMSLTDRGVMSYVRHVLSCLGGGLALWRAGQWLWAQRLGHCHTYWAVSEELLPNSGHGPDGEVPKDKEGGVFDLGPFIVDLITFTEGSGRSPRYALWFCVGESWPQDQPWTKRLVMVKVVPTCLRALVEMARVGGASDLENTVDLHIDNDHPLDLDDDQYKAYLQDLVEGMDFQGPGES
Oligonucleotide | fitted relative affinity [z-score]
GCCTAGCACTAAGGACTGGGTATCGGTTAGTGCTAGGTCTTGATTCGCTTGACGCTGCTG | 0.449
GCCTAGCACGACGGTTTCCGTTCCGGGACGTGCTAGGTCTTGATTCGCTTGACGCTGCTG | 8.19
GCCTAGCACAGCAAATTATATCTTATATCGTGCTAGGTCTTGATTCGCTTGACGCTGCTG | -0.145

Series 2
Target: Histone acetyltransferase KAT6A, both winged helices, GST fusion (KAT6A, Homo sapiens, UniProt Q92794, residues 1-181)
Technique: protein binding microarray
Form: double-stranded DNA, one strand shown
Sample: in vitro
Tested at: not given
Notes: 8-mer, flanks averaged, mean of 2 arrays, mostly near background
Reference: not given
Reading: higher = stronger binding
Residues (chain): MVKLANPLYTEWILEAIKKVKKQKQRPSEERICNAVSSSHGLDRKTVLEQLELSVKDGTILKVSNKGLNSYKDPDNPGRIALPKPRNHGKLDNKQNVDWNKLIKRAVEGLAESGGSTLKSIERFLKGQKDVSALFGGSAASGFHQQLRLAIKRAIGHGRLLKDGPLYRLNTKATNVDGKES
Oligonucleotide | E-score
GCATCCAA | -0.102
ACCGGCAG | 0.189
CATAGGCA | -0.0969
TCTGGGCA | -0.186

Mixed results
G3BP1 RRM domain: Ras GTPase-activating protein-binding protein 1, RRM domain (G3BP1, Homo sapiens, UniProt Q13283)
Sequence of UniProt Q13283 (whole entry, looked up): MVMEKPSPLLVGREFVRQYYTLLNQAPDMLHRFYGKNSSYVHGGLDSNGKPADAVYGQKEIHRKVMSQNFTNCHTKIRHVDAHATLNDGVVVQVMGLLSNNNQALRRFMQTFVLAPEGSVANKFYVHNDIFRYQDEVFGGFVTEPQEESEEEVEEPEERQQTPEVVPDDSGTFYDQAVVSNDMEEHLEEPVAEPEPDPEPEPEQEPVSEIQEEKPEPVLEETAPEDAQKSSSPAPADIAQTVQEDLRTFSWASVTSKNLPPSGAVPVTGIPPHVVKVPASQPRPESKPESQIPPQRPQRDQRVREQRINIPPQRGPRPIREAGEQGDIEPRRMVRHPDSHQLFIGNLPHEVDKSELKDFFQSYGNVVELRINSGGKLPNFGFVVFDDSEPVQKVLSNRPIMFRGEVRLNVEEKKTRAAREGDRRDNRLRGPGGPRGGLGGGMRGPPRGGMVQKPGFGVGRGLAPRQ
Substance | target | assay | system | conditions | scale | quantity | value
GGGAGUUCUACAGUCCGACGAUCCCUGUGCUACACAUCGUAUGUACCGAAUCGGGUUUUUUUGGGUUUUUGGGAAAAAAAGGGAAAGUAUUAUGUUACGCCGUUCGGAUCUGCUGGAAUUCUCGGGUGUCAAGG | G3BP1 RRM domain | RNA Bind-n-Seq | RNA, in vitro | 1 µM, whole 134-nt RNA, ends assumed, together with: 150 mM KCl | reference: input library, higher = stronger binding | log2 enrichment | -0.197
PhoQ, residues 284 288 289 292 302 303 TVTVVA | PhoP, residues 12 14 15 18 19 SPWRL (Escherichia coli, UniProt P23836) | Sort-seq, refers to: YFP reporter | E. coli | PhoQ-PhoP variant library, together with: 10 µM Mg2+ | reference: high Mg2+ state, higher = stronger signaling | fold induction | 6.57
GGGAGUUCUACAGUCCGACGAUCUGGCCCUGGUGGCAUGCGGGGAGGAAGAGGUGGCCUCAUAGAUCGUGGUGGUCCCGGUGGAAUGUUCAGAGGUGGCCGUGGUGGAGACAGUGGAAUUCUCGGGUGUCAAGG | G3BP1 RRM domain | RNA Bind-n-Seq | RNA, in vitro | 1 µM, whole 134-nt RNA, ends assumed, together with: 150 mM KCl | reference: input library, higher = stronger binding | log2 enrichment | 1.15
GGGAGUUCUACAGUCCGACGAUCAGUCCUGUGCUACACAUCGUAUGUACCGAAUCGGUUUUUUUGGAAAAAGGUUUUUGGAAAGUAUUAUGUUACGCCGUUCGGAUCUGCACUUGGAAUUCUCGGGUGUCAAGG (7-deaza-guanosine replaces G) | Ras GTPase-activating protein-binding protein 1, full length (G3BP1, Homo sapiens, UniProt Q13283) | RNA Bind-n-Seq | RNA, in vitro | 200 nM, whole 134-nt RNA, ends assumed, together with: 150 mM LiCl | reference: input library, higher = stronger binding | log2 enrichment | -3.09
GGGAGUUCUACAGUCCGACGAUCCCUGUGCUACACAUCGUAUGUACCGAAUCGGGUUUUUUUGGGUUUUUUUGGGAAAAAGGGAAAGUAUUAUGUUACGCCGUUCGGAUCUGCUGGAAUUCUCGGGUGUCAAGG | Fragile X messenger ribonucleoprotein 1, C-terminal low-complexity region (Fmr1, Mus musculus, UniProt P35922) | RNA Bind-n-Seq | RNA, in vitro | 200 nM, whole 134-nt RNA, ends assumed, together with: 150 mM KCl | reference: input library, higher = stronger binding | log2 enrichment | -0.758

Repeated from above (series 2):
Oligonucleotide | E-score
CATAGGCA | -0.0969
